Results pooled from the literature.
Each numbered part is a random draw from the data of one study; scales do not carry over between parts. Positions count from the first letter of the parent shown.

Study 1 — method: DHFR PCA, deep sequencing; medium: yeast; added: (+)-ABA 200 µM; relative to: wild-type fitted maximum; direction: higher = stronger binding
Target: ABI1, truncated, D143A, DHFR fusion (Arabidopsis thaliana)
Notes: methotrexate growth selection, single substitutions
Starting sequence: PYL1, truncated, DHFR fusion (Arabidopsis thaliana); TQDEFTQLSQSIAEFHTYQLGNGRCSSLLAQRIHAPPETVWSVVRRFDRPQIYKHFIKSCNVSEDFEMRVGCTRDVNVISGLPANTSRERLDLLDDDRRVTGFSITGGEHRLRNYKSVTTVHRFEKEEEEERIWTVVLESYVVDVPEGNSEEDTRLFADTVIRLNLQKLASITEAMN; partner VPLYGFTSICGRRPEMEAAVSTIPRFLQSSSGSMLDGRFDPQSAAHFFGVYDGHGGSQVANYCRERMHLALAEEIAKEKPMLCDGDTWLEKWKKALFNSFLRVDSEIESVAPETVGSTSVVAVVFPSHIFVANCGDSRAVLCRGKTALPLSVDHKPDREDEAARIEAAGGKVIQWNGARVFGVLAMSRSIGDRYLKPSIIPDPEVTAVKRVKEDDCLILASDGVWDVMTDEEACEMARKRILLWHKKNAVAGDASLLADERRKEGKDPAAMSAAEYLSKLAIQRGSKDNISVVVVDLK
| Variant | relative binding score [%] |
| --- | --- |
| S140F | -0.333 |
| A158C | 102 |
| R163T | 90.4 |
| E89Y | -18.5 |
| V78L | 105 |
| G107T | 63.8 |
| F47V | -3.98 |
| C25R | 21.2 |
| A84K | 9.98 |
| L82A | 61 |
| A170V | 66.9 |
| T86D | 98.6 |
| F56E | 17.2 |
| I57W | 10.2 |
| L112W | -12.8 |
| T173H | 54.5 |
| A175Y | 90 |
| H34P | 84 |
| P50F | 2.78 |
| E174N | 84.3 |

Study 2 — method: RNA Bind-n-Seq; form: RNA; medium: in vitro; concentration: 365 nM; relative to: no-protein control; direction: higher = stronger binding
Target: RNA binding protein fox-1 homolog 2, RRM domain, GST-SBP tag (RBFOX2, Homo sapiens, UniProt O43251-10, residues 100-194)
Notes: natural RNA segment, single round, ends assumed
Shared flanks, not repeated: GGGAGUUCUACAGUCCGACGAUC … UGGAAUUCUCGGGUGCCAA
Target sequence (chain): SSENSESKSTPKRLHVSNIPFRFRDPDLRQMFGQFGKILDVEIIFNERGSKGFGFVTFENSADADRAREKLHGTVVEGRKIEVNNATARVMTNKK
| Strand | RBNS enrichment (R) |
| --- | --- |
| ACCUGCCCCCUACUGAUGAUGAAGAUUUUUACACCACCUUCUCCUUGGUAACAGAUAAGAGUCUUUCCACUUCAAUCUUCGAAGGUGGCUACAAAGCACAUGCGCCCAAG | 0.655 |
| UUAAUUUUUUCAGGUAUUUUUCUAUUUAGUGUUGCAGCCAAAGAGUAUUUAAAUUAAGUCUUUGCUGCACUUAAAUUCAUACCCAGCCAAAAUGGAACUUUAGGCCAACC | 0.354 |
| UGGAAGUGUGAGGGGGGUGGAUGGGAAAGUCAAAGUCUGGUCUUGAGGGUCAUGGGUUUGCUUUUGCUGUUGUGACGCCUGUUCCCGUCUCUAUGUUAAAAUGCCAAAAA | 1.05 |
| ACUCAAAUUUAAACCAUGCUUUCUUGUAGUACUGAUUGAAACUUACACGUUUUAUUCUACUCAUAGUGAGCUUAUUCUUAUUUUGGAUUGAUUUUCCAAAACCACAGCUU | 0.256 |
| UAGAUCUAUUUGACUUAAUAAGUAGGAACCCCCUUUGCCCUUCCCCCAUCUCCUCUCCCUUACUGUAGCAUUUCUGUCAUGUAAGAGGUGCUGACAGCCACUUCCGUGUC | 0.772 |
| UCAUAGGCAGCAUACGCCUGCUGCCCCAUUGUGGGUGGGGGUGCCCCACUGCGUACUGUGUUUUUAAUUUCAUUUAACUUCUAGCAGACACGCUCAGUGUCUUUGAUAAA | 0.458 |
| GAAGAGUACUCAGCAGCCACUGCCCUCAUCAGGAACCUCCUCGGCAUCCAUCAGUCUCCUCACUGCUCCUGUGCGCAGGGCUGUCCCUCCCACACUCCCUUCCAGGCCGU | 0.471 |
| UACUUGAAAAAUUAAUUGUAUGAUGUAUGAGAAGACAGAGUCUCCUAGUUUUGUAUCUUGUUGUAUGACUGCCAUGAGUUCCACCAGAAAGCCACUCUAUUUUGGUCUCU | 2 |
| UUAAACUGGUGAUUUUGGUUGCACUGCUCACUUUAAGAGUUAACAUGCUCACUUGUUAGUAUUUCUGAGUAACAAGAUGGUGACUUCUCCUUGGGGAUCUGGGAGCUGAG | 1.22 |
| UGUAAUGAACAGACCCGAAGGAAUCCUCCACACACAAGCCAGGGAACACCAACUGGAAAGGUACCCCGUCCCAGGGAAGCCUGCUAGGGAGAGGUUCUGUAGAAUCCGAG | 0.246 |
| CAAAGAAUUUCUGUGGGGAUUUGUACCCCAGAAUCCUGUUCCCCCAUCCCUUCUCCCACCUCCUCCCCUCUCCCUCCCCCUGGAGACCCUGGAAGUGGUGUGUUCACAUA | 0.622 |
| GGCGUGGGUGCUCACCUCACUUAUCCUCGGGGUUUGGGACCUGGCAUCAGGACCUCUCCACCCAGGAUCCUCCAUGCCACAUGGUCACUGCUCUCCUCAGGGACUGGGAC | 0.276 |

Study 3 — target: CCNB2, cyclin fold, Cln2 fusion (human); method: yeast growth competition, sequencing; medium: yeast; notes: weak parent motif; relative to: not given; direction: higher = stronger binding
Starting sequence: FZR1 docking peptide (human); QDYERRLLRQIVI
| Variant | normalised enrichment score |
| --- | --- |
| QDYERRLLRQIAI [V12A] | 0.413 |
| QDYEARLLRQIVI [R5A] | 0.265 |
| QDYERALLRQIVI [R6A] | 0.514 |
| QDYEARALRQIVI [R5A L7A] | 0.326 |
| QDYEKRLFRQIVI [R5K L8F] | 0.34 |
| QDYERRLLRQIVA [I13A] | 0.327 |
| QDYEKRLLRQIVI [R5K] | 0.441 |
| QDYERRLLRAIVI [Q10A] | 0.318 |
| QDYERRALRQIVI [L7A] | 0.377 |
| QDAERRLLRQIVI [Y3A] | 0.436 |

Study 4 — method: RNA Bind-n-Seq; form: RNA; medium: in vitro; concentration: 1 µM; notes: whole 134-nt RNA, ends assumed; added: 150 mM KCl; relative to: input library; direction: higher = stronger binding
Target: Ras GTPase-activating protein-binding protein 1, C-terminal RGG region (G3BP1, Homo sapiens, UniProt Q13283)
Sequence of UniProt Q13283 (whole entry, looked up): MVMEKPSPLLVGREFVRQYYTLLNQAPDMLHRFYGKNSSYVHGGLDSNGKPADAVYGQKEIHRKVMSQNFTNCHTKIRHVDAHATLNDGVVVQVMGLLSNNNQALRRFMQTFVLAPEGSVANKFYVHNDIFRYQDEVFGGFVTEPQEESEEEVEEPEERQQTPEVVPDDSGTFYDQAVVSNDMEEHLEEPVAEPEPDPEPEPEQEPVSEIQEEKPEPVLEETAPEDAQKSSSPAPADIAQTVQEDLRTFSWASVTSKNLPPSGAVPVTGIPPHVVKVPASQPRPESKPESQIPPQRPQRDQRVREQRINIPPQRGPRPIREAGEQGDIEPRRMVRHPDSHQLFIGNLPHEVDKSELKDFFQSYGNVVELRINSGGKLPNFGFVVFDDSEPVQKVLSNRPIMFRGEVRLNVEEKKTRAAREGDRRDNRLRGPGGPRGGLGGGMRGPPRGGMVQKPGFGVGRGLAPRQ
Shared flanks, not repeated: GGGAGUUCUACAGUCCGACGAUC … UGGAAUUCUCGGGUGUCAAGG
| Strand | log2 enrichment |
| --- | --- |
| GUCCUGUGCUACACAUCGUAUGUACCGAAUCGGGGAAAAAGGGGAAAAAGGGGUGGGGAAAGUAUUAUGUUACGCCGUUCGGAUCUGCAC | 1.71 |
| CCUCAAGUCCUGUGCUACACAUCGUAUGUACCGAAUCGGGAGGGUGGGUGGGAAAGUAUUAUGUUACGCCGUUCGGAUCUGCACUUCCAG | 0.628 |
| GUCCUGUGCUACACAUCGUAUGUACCGAAUCGGGGAGGGGAAAAAAAGGGGAAAGGGGAAAGUAUUAUGUUACGCCGUUCGGAUCUGCAC | 2.49 |
| UGGCCCUGGUGGCAUGCGGGGAGGAAGAGCUGGCCUCAUGGAUCGUGGUGGUCCCGGUGGAAUGUUCAGAGGUGGCCGUGGUGGAGACAG | 2.38 |
| UCAAGUCCUGUGCUACACAUCGUAUGUACCGAAUCGGAAAGGGGAAAGGAAAGGAAAGUAUUAUGUUACGCCGUUCGGAUCUGCACUUCC | -1.48 |
| UCAAGUCCUGUGCUACACAUCGUAUGUACCGAAUCGGGUUUGGUUUGGGGUUUGGAAAGUAUUAUGUUACGCCGUUCGGAUCUGCACUUC | -1.18 |
| AGUCCUGUGCUACACAUCGUAUGUACCGAAUCGGGUUUUUGGGAAAGGGAAAAAGGGAAAGUAUUAUGUUACGCCGUUCGGAUCUGCACU | 0.279 |
| ACCAUGCACGUGGGCAUCUUUGGGAAGUGGGGCAAGGGGGGGAUAGGGAGGGGGGUAACACUUUGGGAACAGGUGGUCCCAGGUCGUUUC | -1.16 |
| GUCCUGUGCUACACAUCGUAUGUACCGAAUCGGGGUUUUUGGUUUUUGGUUUUUGGGGAAAGUAUUAUGUUACGCCGUUCGGAUCUGCAC | -1.29 |
| CACAGACAACACGUACCCACACAGACACAGAGGGAAGGGGUUGGGAUGGGGACAGGGUGCACAGCAGGGCGGGGUAGGACCCCAGCCCCU | -0.342 |

Repeated from above (study 1):
| Variant | relative binding score [%] |
| --- | --- |
| S140F | -0.333 |
| A158C | 102 |
| R163T | 90.4 |
| E89Y | -18.5 |
| V78L | 105 |
| G107T | 63.8 |
